Assay results pooled from the literature.
Numbered parts are unrelated; each lists some results of a single study.
UniProt P51617, sequence (whole entry, looked up): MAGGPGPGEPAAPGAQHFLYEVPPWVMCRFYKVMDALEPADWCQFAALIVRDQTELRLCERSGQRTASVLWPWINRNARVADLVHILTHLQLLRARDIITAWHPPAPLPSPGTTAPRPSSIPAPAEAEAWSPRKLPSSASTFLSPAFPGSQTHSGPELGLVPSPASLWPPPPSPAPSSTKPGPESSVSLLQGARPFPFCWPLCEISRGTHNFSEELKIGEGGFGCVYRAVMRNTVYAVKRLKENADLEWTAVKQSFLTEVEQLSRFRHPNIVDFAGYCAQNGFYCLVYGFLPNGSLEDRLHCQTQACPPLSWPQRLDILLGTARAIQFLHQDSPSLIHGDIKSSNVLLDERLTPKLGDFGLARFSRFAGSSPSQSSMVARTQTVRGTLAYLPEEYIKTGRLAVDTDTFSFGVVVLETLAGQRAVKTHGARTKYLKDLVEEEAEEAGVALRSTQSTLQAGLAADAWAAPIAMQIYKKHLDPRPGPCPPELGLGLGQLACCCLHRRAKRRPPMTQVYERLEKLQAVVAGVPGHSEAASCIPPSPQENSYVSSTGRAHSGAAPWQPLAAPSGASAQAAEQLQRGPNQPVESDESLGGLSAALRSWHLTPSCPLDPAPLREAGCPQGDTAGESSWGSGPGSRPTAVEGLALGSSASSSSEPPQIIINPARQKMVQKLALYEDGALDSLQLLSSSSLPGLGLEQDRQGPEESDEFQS
UniProt O76039, sequence (whole entry, looked up): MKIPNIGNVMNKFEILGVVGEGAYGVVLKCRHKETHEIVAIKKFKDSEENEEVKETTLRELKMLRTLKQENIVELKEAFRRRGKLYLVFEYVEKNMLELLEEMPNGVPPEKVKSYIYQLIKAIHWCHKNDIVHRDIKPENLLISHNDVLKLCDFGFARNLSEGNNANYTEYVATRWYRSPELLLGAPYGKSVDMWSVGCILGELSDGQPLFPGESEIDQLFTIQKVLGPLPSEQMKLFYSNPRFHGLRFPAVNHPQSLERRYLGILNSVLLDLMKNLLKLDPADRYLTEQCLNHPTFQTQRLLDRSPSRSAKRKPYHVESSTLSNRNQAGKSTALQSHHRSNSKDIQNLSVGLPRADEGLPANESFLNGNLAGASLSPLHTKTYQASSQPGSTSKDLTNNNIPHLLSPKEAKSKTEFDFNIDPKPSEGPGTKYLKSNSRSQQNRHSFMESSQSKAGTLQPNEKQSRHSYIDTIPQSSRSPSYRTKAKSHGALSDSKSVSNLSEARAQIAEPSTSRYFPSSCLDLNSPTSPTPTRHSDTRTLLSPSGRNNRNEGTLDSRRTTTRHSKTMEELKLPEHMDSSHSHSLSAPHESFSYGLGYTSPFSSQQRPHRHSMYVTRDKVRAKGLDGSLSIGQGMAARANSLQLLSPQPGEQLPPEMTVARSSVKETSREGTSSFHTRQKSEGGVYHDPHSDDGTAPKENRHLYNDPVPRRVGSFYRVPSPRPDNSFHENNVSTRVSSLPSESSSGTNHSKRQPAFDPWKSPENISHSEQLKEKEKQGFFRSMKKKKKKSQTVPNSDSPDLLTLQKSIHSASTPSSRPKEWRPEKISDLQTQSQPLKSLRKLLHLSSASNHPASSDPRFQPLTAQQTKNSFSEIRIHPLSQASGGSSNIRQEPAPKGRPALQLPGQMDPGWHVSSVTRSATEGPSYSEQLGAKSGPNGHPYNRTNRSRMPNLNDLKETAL
UniProt P0C264, sequence (whole entry, looked up): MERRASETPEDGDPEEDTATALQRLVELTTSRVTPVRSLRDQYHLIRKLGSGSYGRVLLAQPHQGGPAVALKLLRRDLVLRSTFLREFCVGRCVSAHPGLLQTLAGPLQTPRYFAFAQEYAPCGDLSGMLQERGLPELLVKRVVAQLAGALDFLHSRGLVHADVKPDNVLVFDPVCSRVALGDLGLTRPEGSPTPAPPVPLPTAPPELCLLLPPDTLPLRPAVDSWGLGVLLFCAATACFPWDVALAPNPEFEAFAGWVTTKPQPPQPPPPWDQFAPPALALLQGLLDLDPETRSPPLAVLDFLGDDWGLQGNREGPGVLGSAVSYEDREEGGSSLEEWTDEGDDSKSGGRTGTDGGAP
UniProt P08069, sequence (whole entry, looked up): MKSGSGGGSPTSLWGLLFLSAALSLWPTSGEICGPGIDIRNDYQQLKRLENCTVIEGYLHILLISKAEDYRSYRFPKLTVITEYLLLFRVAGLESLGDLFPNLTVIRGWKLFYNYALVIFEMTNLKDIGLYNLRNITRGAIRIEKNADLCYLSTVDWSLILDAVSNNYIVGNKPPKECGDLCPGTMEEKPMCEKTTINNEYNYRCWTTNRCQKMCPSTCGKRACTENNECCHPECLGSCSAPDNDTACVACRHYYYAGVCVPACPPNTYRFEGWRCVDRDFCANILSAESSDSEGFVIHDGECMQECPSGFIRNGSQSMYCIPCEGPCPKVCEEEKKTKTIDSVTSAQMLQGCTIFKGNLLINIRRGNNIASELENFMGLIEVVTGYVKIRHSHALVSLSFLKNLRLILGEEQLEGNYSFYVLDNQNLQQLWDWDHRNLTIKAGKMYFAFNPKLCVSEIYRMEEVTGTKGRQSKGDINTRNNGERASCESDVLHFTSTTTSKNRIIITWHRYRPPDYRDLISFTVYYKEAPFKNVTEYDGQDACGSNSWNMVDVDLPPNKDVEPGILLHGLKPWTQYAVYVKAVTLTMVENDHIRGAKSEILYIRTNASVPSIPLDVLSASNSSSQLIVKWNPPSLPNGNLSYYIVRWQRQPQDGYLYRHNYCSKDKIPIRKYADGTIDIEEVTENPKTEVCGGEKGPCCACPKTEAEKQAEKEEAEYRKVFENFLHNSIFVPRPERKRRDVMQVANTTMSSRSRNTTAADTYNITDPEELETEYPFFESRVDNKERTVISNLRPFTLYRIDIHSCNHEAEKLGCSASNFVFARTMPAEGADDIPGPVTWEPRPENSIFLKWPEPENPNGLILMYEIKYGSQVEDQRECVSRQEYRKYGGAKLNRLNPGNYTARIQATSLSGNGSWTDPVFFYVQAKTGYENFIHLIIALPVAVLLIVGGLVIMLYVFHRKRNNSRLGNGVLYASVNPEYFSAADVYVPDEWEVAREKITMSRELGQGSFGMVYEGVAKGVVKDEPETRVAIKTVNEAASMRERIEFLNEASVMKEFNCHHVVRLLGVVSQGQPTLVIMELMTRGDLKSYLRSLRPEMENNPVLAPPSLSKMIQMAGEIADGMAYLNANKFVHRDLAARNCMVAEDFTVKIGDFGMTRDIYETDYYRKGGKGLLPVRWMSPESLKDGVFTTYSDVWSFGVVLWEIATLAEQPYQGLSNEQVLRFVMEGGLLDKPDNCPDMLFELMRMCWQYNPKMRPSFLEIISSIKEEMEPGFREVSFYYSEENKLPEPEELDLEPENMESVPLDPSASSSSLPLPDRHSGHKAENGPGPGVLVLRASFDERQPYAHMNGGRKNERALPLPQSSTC
UniProt Q9UQM7, sequence (whole entry, looked up): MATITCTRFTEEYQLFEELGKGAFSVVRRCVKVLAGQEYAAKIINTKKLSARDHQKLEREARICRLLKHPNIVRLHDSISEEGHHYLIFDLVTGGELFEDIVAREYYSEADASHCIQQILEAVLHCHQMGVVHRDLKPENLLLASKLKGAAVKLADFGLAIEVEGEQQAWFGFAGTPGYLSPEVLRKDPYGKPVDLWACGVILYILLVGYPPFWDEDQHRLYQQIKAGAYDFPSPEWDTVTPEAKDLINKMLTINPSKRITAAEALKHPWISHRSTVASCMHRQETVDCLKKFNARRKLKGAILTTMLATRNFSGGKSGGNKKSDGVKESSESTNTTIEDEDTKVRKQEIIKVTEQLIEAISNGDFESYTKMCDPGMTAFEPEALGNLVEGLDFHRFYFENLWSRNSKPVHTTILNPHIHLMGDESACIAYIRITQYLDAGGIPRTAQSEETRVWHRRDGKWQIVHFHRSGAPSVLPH
UniProt Q8IW41, sequence (whole entry, looked up): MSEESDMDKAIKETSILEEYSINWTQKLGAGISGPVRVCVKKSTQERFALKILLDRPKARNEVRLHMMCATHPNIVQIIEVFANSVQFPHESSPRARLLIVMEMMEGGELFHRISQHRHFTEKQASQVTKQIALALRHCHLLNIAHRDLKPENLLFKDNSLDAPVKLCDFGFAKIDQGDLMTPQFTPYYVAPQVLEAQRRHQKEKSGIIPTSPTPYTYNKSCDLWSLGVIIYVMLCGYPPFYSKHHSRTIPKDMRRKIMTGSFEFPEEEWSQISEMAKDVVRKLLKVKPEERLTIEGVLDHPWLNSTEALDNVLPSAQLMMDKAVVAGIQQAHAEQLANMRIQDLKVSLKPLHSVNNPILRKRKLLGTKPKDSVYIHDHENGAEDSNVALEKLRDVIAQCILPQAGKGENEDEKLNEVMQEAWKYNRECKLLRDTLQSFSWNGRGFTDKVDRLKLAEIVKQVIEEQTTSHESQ

Study 1
SMILES: O=C(NCCCC1CCCCC1)c1ccc(CNC(=O)c2cnn(-c3ccccc3)c2C(F)(F)F)cc1
Effect on: cell-free assay
Technique: competition with immobilised ligand
Concentration: 0.1 µM
Measurement: remaining binding
Serine/threonine-protein kinase Nek1 (NEK1, Homo sapiens, UniProt Q96PY6): 58%
Proto-oncogene tyrosine-protein kinase receptor Ret (RET, Homo sapiens, UniProt P07949, V804M): 100%
Proto-oncogene tyrosine-protein kinase Src (SRC, Homo sapiens, UniProt P12931): 100%
Ephrin type-B receptor 6 (EPHB6, Homo sapiens, UniProt O15197): 100%
Serine/threonine-protein kinase MAK (MAK, Homo sapiens, UniProt P20794): 100%
Calcium/calmodulin-dependent protein kinase type II subunit alpha (CAMK2A, Homo sapiens, UniProt Q9UQM7): 100%
Mitogen-activated protein kinase kinase kinase 3 (MAP3K3, Homo sapiens, UniProt Q99759): 100%
Cyclin-dependent kinase 14 (CDK14, Homo sapiens, UniProt O94921): 100%
Cyclin-dependent kinase-like 5 (CDKL5, Homo sapiens, UniProt O76039): 100%
Mast/stem cell growth factor receptor Kit (KIT, Homo sapiens, UniProt P10721, D816V): 100%
Interleukin-1 receptor-associated kinase 1 (IRAK1, Homo sapiens, UniProt P51617): 100%
MAP kinase-activated protein kinase 5 (MAPKAPK5, Homo sapiens, UniProt Q8IW41): 100%
Tyrosine-protein kinase Mer (MERTK, Homo sapiens, UniProt Q12866): 100%
Uncharacterized serine/threonine-protein kinase SBK3 (SBK3, Homo sapiens, UniProt P0C264): 100%
Fibroblast growth factor receptor 3 (FGFR3, Homo sapiens, UniProt P22607, G697C): 100%
Insulin-like growth factor 1 receptor (IGF1R, Homo sapiens, UniProt P08069): 100%
Serine/threonine-protein kinase WNK4 (WNK4, Homo sapiens, UniProt Q96J92): 100%
Mitogen-activated protein kinase kinase kinase 15 (MAP3K15, Homo sapiens, UniProt Q6ZN16): 84%
Phosphatidylinositol 4,5-bisphosphate 3-kinase catalytic subunit alpha isoform (PIK3CA, Homo sapiens, UniProt P42336, E542K): 74%
Tyrosine-protein kinase receptor UFO (AXL, Homo sapiens, UniProt P30530): 95%
Tyrosine-protein kinase Blk (BLK, Homo sapiens, UniProt P51451): 100%
Hepatocyte growth factor receptor (MET, Homo sapiens, UniProt P08581): 100%
Tyrosine-protein kinase ITK/TSK (ITK, Homo sapiens, UniProt Q08881): 100%

Study 2
Target: Cyclin-dependent kinase 1, with cyclin B (CDK1, Homo sapiens, UniProt P06493)
UniProt P06493, sequence (whole entry, looked up): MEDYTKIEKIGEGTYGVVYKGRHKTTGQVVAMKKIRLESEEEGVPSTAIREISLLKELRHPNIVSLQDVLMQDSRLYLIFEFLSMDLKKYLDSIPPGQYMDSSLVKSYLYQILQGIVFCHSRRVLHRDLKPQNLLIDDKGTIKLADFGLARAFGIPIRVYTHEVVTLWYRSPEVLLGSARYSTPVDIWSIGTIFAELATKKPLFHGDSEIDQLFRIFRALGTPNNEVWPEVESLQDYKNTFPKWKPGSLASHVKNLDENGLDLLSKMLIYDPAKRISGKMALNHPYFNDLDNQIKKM
Effect on: enzyme activity
Action: inhibitor
Concentration: 0.5 µM
Baseline: control
Measurement: remaining activity
COc1cc2ncnc(Nc3ccc(F)c(Cl)c3)c2cc1OCCCN1CCOCC1: 99.1%
C#Cc1cccc(Nc2ncnc3cc(OCCOC)c(OCCOC)cc23)c1: 97.2%
COc1ccc(OC)c2c(=S)c3ccccc3[nH]c12: 97.8%
Nc1ncnc2n[nH]c(Nc3ccc(F)cc3)c12: 90.7%
Oc1ccc(-c2nc(-c3ccncc3)c(-c3ccc(F)cc3)[nH]2)cc1: 99%
COc1cc2nccc(Oc3ccc(NC(=S)NC(=O)c4ccccc4C)cc3)c2cc1OC: 90.7%
NCCNc1ncc(C(N)=O)c(Nc2cccc(C(F)(F)F)c2)n1: 81.7%
CN(C)c1ccc(C=C2C(=O)Nc3ccccc32)cc1: 94.1%
COc1ccc(CNC(=O)Nc2ncc([N+](=O)[O-])s2)cc1: 85.1%
Cc1cccc(-c2[nH]c(C(C)(C)C)nc2-c2ccc3c(c2)OCO3)n1: 100%

Study 3
Target: Sal-like protein 4, full length isoform B (SALL4, Homo sapiens, UniProt Q9UJQ4-2, residues 1-616)
Technique: universal PBM
Form: double-stranded DNA, one strand shown
Medium: in vitro
Concentration: not given
Setting: 8-mer, flanks averaged, mean of replicates
Reading: higher = stronger binding
Measurement: E-score
CTTAGGAA: 0.054
CTTATAAG: 0.244
ATAACGAT: 0.11
CGGTCAGC: -0.155
ACTCTAAC: 0.0756
CACGACTA: -0.0914
GTCTCCCA: -0.183
GATGTACC: 0.0712

Study 4
Target: Interferon regulatory factor 7, full length, phosphomimetic (IRF7, Homo sapiens, UniProt Q92985, residues 1-503, S471D/S472D/S475D/S476D/S477D/S483D/S484D/S487D)
Technique: protein-binding microarray
Form: double-stranded DNA, one strand shown
Medium: in vitro
Concentration: 2200 nM top
Setting: 60-bp whole probe
With: salmon DNA 0.4 mg/ml
Baseline: random background probes
Reading: higher = stronger binding
Measurement: fitted relative affinity
Shared flanks, not repeated: GCCTAGCAC … GTCTTGATTCGCTTGACGCTGCTG
Target sequence (chain): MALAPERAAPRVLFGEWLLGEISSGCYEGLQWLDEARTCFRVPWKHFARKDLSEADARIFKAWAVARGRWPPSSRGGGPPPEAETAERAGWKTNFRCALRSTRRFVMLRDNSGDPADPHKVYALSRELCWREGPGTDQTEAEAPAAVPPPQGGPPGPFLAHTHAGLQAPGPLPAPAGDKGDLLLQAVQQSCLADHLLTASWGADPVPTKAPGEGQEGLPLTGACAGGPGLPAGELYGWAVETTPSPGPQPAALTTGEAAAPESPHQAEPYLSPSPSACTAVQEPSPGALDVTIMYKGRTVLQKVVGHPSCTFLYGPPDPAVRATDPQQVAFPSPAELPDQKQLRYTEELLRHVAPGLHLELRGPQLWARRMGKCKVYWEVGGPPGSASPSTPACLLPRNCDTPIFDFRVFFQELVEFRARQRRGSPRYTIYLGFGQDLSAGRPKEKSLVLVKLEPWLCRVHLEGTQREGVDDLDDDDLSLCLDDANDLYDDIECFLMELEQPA
TTAGGACTGGACTTTGGGTTAGTGCTA: -0.538 z-score
TTAGGTATCGTTATCCTTTAGTGCTAG: 1.34 z-score
TCAGTTACCCATCTCAAACTGTGCTAG: 1.41 z-score
GACGGTATCGGTTCCGGGACGTGCTAG: 1.17 z-score
TTAGATCTCAGTATCGATTTGTGCTAG: 0.971 z-score
GACGGTTTCCTTTTCCCGACGTGCTAG: 6.03 z-score
TTAGAGATCGGGTATCGATTAGTGCTA: -0.544 z-score
TTAGGTTTCCTACTGCTTTGGTGCTAG: 1.41 z-score
